Measured values of several laboratories.
Organism: Pseudomonas aeruginosa

SMILES	assay	system	setting	MIC
COc1ccc2ccc3c(c2c1)C=[N+]1C2CCCCC2[N+]2=Cc4cccc(C)c4[O][Au-]21[O]3.F[P-](F)(F)(F)(F)F (stereo not shown)	bacterial growth, broth microdilution	carbapenem-resistant	24 h	> 20 µM
CC1(C)S[C@@H]2[C@H](NC(=O)[C@H](NC(=O)C3=C(O)C(c4ccccc4F)NC3=O)c3ccccc3)C(=O)N2[C@H]1C(=O)O (stereo partly shown)	broth microdilution	PAO1, Mueller-Hinton broth	with: 2,2'-bipyridyl 30 µg/mL	25 µg/mL
CCCCCCCCCC(=O)NCCCC[C@H](NC(=O)[C@H](CC(C)C)NC(=O)[C@H](CCCCN)NC(=O)[C@H](CCCCNC(=O)[C@H](CC(C)C)NC(=O)[C@H](CCN)NC(=O)[C@H](CCCCNC(=O)[C@H](Cc1ccccc1)NC(=O)[C@@H](N)CCCN)NC(=O)[C@H](Cc1ccccc1)NC(=O)[C@@H](N)CCCN)NC(=O)[C@H](CC(C)C)NC(=O)[C@H](CCN)NC(=O)[C@H](CCCCNC(=O)[C@H](Cc1ccccc1)NC(=O)[C@@H](N)CCCN)NC(=O)[C@H](Cc1ccccc1)NC(=O)[C@@H](N)CCCN)C(N)=O	broth microdilution	PAO1	37 °C	2 µg/mL
CC(C)=CCc1c(O)ccc2c1O[C@H]1c3cc4c(cc3OC[C@@H]21)OC(C)(C)C=C4		ATCC 10145		128 µg/mL
Cc1[nH]c(=O)c(CNC(=O)c2ccc(C(F)(F)F)nc2)c2c1CCCC2	agar double dilution	clinical isolate 17-2		> 128 µg/mL
COc1ccc2c(c1)[O][Au-]13[O]c4ccc5ccc(OC)cc5c4C=[N+]1C1CCCCC1[N+]3=C2.F[P-](F)(F)(F)(F)F (stereo not shown)	bacterial growth, broth microdilution	carbapenem-resistant	24 h	> 20 µM
CC(=O)N[C@H](CCCCN)C(=O)N[C@H](CC(C)C)C(=O)N[C@H](CCCCN)C(=O)N[C@H](CO)C(=O)N[C@H](CC(C)C)C(=O)N[C@H](CC(C)C)C(=O)N[C@H](CCCCN)C(=O)N[C@@H](C(=O)N[C@H](CC(C)C)C(=O)N[C@H](CO)C(=O)N[C@H](CCCCN)C(=O)N[C@H](C)C(=O)N[C@H](CCCCN)C(=O)N[C@H](CCCCN)C(=O)N[C@H](CCCCN)C(=O)N[C@H](CCCCN)C(=O)N[C@H](CC(C)C)C(=O)N[C@H](CCCCN)C(=O)N[C@@H](C(=O)N[C@H](CC(C)C)C(=O)N[C@H](CC(C)C)C(=O)N[C@H](CCCCN)C(=O)N[C@H](C)C(=O)N[C@H](CC(C)C)C(=O)N[C@H](CO)C(=O)N[C@H](CCCCN)C(N)=O)[C@H](C)O)[C@H](C)O	broth microdilution	PAK	24 h, 37 °C	2.6 µM
FC(F)(F)c1cc(CSc2nnc(C34CC5CC(CC(C5)C3)C4)n2-c2ccccc2)cc(C(F)(F)F)c1	two-fold dilution	IFO 3448	24 h, 36 °C	8 µg/mL
CCCCCCCCCCCC(=O)NCCCC[C@@H]1NC(=O)[C@H](CCCNC(=N)N)NC(=O)[C@H](CCCNC(=N)N)NC(=O)[C@H](CCCNC(=N)N)NC(=O)[C@H](CCCNC(=N)N)NC(=O)[C@H](CCCNC(=N)N)NC1=O	broth microdilution	PAO1	37 °C	136 µg/mL
CC[C@@H](C)[C@@H](NC(=O)[C@@H](C)NC(=O)[C@@H](CCCCN)NC(=O)[C@@H](CC(C)C)NC(=O)[C@@H](C)NC(=O)[C@H](NC(=O)[C@@H](CCCCN)NC(=O)[C@@H](CC(C)C)NC(=O)[C@H](NC(=O)[C@@H](CCCCN)NC(=O)[C@@H](CCCCN)NC(=O)[C@@H](CCCCN)NC(=O)[C@@H](C)NC(=O)[C@@H](CCCCN)NC(=O)[C@@H](CO)NC(=O)[C@@H](Cc1ccccc1)NC(=O)[C@H](NC(=O)[C@@H](CCCCN)NC(=O)[C@@H](CC(C)C)NC(=O)[C@@H](Cc1ccccc1)NC(=O)[C@@H](CO)NC(=O)[C@@H](CCCCN)NC(=O)[C@@H](Cc1c[nH]c2ccccc12)NC(=O)[C@@H](CCCCN)NC(C)=O)[C@H](C)O)C(C)C)[C@H](C)O)C(=O)N[C@H](CO)C(=O)N[C@H](CCCCN)C(N)=O	broth microdilution	PA14	24 h, 37 °C	1.3 µM

A few entries again:
SMILES	assay	system	setting	MIC
CC[C@@H](C)[C@@H](NC(=O)[C@@H](C)NC(=O)[C@@H](CCCCN)NC(=O)[C@@H](CC(C)C)NC(=O)[C@@H](C)NC(=O)[C@H](NC(=O)[C@@H](CCCCN)NC(=O)[C@@H](CC(C)C)NC(=O)[C@H](NC(=O)[C@@H](CCCCN)NC(=O)[C@@H](CCCCN)NC(=O)[C@@H](CCCCN)NC(=O)[C@@H](C)NC(=O)[C@@H](CCCCN)NC(=O)[C@@H](CO)NC(=O)[C@@H](Cc1ccccc1)NC(=O)[C@H](NC(=O)[C@@H](CCCCN)NC(=O)[C@@H](CC(C)C)NC(=O)[C@@H](Cc1ccccc1)NC(=O)[C@@H](CO)NC(=O)[C@@H](CCCCN)NC(=O)[C@@H](Cc1c[nH]c2ccccc12)NC(=O)[C@@H](CCCCN)NC(C)=O)[C@H](C)O)C(C)C)[C@H](C)O)C(=O)N[C@H](CO)C(=O)N[C@H](CCCCN)C(N)=O	broth microdilution	PA14	24 h, 37 °C	1.3 µM
